# Results from different studies.
# Lines come from different studies, so protocols differ. Numbers after ± are the reported error.
# Chain of UniProt Q9CPV9 (whole entry, looked up): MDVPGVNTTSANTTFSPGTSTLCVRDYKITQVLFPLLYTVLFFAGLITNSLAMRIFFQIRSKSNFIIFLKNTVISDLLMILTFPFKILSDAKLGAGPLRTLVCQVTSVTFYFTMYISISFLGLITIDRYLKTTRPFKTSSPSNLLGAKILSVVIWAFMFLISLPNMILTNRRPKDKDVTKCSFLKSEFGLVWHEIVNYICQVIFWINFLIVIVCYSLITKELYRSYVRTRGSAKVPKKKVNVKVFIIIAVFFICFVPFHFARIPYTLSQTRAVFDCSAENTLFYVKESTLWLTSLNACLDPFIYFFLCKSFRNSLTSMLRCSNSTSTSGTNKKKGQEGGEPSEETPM
# Chain of UniProt P20813 (whole entry, looked up): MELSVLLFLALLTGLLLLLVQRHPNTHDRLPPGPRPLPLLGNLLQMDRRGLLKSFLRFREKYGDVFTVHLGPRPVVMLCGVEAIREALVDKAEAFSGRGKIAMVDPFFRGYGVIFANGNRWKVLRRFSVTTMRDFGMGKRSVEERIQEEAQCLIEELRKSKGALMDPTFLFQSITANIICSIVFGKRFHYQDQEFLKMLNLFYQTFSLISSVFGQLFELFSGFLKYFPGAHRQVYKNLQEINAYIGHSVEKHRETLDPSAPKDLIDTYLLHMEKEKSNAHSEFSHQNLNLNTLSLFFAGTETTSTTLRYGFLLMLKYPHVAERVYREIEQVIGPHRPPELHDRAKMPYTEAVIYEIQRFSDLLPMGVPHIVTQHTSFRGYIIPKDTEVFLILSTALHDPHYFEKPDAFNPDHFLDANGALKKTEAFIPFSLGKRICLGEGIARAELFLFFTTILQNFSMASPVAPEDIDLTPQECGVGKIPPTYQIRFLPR
SMILES,tested on,test,test system,setting,quantity,result
N#Cc1cc(C(=O)OCC[18F])c(C(F)(F)F)nc1N1CCN(C(=O)Cc2ccccc2)CC1,"P2Y purinoceptor 12 (P2ry12, Mus musculus, UniProt Q9CPV9)",PET,mouse aged 40 weeks,11.1 MBq,peak brain SUV,1.96 ± 0.18
[64Cu+2].c1cnc(CNCc2ccc(CN3CCCN4CCNCCCN(CC4)CC3)cc2)nc1,CXCR4,,"NOD/SCID mouse, U87 and U87-stb-CXCR4 xenografts, blood","iv, 120 min, ex vivo",tissue uptake,1.33 ± 0.14 %ID/g
COc1ccc(CNc2nc(N3CCC[C@H]3CO)ncc2C(=O)NNC(=O)c2cnc(N3CCC[C@H]3CO)nc2NCc2ccc(OC)c(Cl)c2)cc1Cl,Salmonella typhimurium,Ames test,"TA98, TA100, TA1535, TA102, TA97a","62.5 to 1000 µg/plate, with and without S9",mutagenicity,negative
[64Cu+2].c1ccc(CNCc2ccc(CN3CCCN4CCNCCCN(CC4)CC3)cc2)nc1,CXCR4,,"NOD/SCID mouse, U87 and U87-stb-CXCR4 xenografts, kidney","iv, 120 min, ex vivo",tissue uptake,33.4 ± 3.03 %ID/g
CC12CC(O)C3CC1(OC1OC(CO)C(O)C(O)C1O)C3(COC(=O)c1ccccc1)C(=O)O2 (centres unmarked),Staphylococcus aureus,,rat gut microbiota,"12 h, anaerobic, SD rat microbiota 100%",conversion,47.5%
CCCCCCCCCCCC(=O)NCCC(=O)N[C@H](CCCNC(=N)N)C(=O)N[C@H](CCCNC(=N)N)C(=O)N[C@H](CCCNC(=N)N)C(=O)N[C@H](CCCNC(=N)N)C(=O)N[C@H](CCCNC(=N)N)C(=O)N[C@H](CCCNC(=N)N)C(=O)N[C@H](CCCNC(=N)N)C(=O)N[C@H](CCCNC(=N)N)C(=O)N[C@H](CCCNC(=N)N)C(=O)N[C@@H](CCCCNC(=S)Nc1ccc2c(c1)C(=O)OC21c2ccc(O)cc2Oc2cc(O)ccc21)C(N)=O,Jurkat,"RP-HPLC fluorescence, item: Arg peptide metabolite",culture medium,6 h,peak area,59.1%
C=CC(=O)Nc1cc(Nc2nccc(-c3cn(C)c4ccccc34)n2)c(OCC(F)(F)F)nc1N(C)CCN(C)C,"Cytochrome P450 2B6 (CYP2B6, Homo sapiens, UniProt P20813)","enzyme activity, inhibitor","human, liver microsomes",1 µM,activity vs control,95.2%
COc1cc2c(CCNC(C)=O)c[nH]c2cc1OS(=O)(=O)O,Abcg2 (mouse),,FVB/N wild-type male mice,"oral, 10 mg/kg melatonin, 1 h",plasma concentration,3.39 ± 1.11 ng/mL

# For quick reference, copied from above:
SMILES,tested on,test,test system,setting,quantity,result
N#Cc1cc(C(=O)OCC[18F])c(C(F)(F)F)nc1N1CCN(C(=O)Cc2ccccc2)CC1,"P2Y purinoceptor 12 (P2ry12, Mus musculus, UniProt Q9CPV9)",PET,mouse aged 40 weeks,11.1 MBq,peak brain SUV,1.96 ± 0.18
